Experimental data from different studies.
Numbered parts are unrelated; each lists some results of a single study.

Study 1 — technique: RNA Bind-n-Seq; form: RNA; matrix: in vitro; concentration: not given; baseline: input RNA pool; direction: higher = stronger binding; quantity: bound/input enrichment
Target: RING finger protein unkempt homolog, zinc fingers 1-6, GST-SBP tag (UNK, Homo sapiens, UniProt Q9C0B0, residues 30-357)
Setting: RNA with constant flanks, human-mouse chimeric sites, ends assumed
Shared flanks, not repeated: GGGAGUUCUACAGUCCGACGAUC … CAACAGAGGAUUGAGCAUCA
Construct (chain): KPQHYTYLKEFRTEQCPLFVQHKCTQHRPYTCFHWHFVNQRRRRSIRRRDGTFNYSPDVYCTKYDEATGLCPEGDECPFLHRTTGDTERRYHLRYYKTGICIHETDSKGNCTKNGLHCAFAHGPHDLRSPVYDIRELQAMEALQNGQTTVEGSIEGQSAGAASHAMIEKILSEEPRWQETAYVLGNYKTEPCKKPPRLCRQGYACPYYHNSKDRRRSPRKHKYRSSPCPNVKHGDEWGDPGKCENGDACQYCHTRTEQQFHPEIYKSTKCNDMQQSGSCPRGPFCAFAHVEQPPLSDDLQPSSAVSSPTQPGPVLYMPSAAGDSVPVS
AGAGAAAUGAGAAAGAAUCUCACACAAGAAGAGAUGCAAAGAAUGUCUACUAGAGUCCUUUUGGCGACUCUUUCCAUUCCUAUUACUCCUGAGCGAACGGAUAUUGCUCGACUUUUGGAU: 0.105 ratio
CGGAGCCCUCCUCUCCCCCAGGCCCGAGAUAUAACCCACCAGUGCCUUUUGUCUUCCUGUCAGCUCUGUCAAUCACGCCUGUCCUCUCACGCCCACACCAAGUGCCCAAAGUGGGGAGGG: 0.539 ratio
GAAUCCUCCCGUGCAAAAUUUUGCAACACCAAGCUCACAGCAGCAGCAUCUUAGUCACAGUAGGGUAGUUUUGGGGCAAUAUUGCCAGGGUUUUAUUCACAUGCAGGUUUGGAAAAUGUA: 4.68 ratio
AAAGAGAAACUAAAGCAACUAAUAGAGGAAGAGGAUUGGCAAAGAGAUUUCAUAGAGAAACUAGGAUUUAUUAGCAAACAUGAGUUAUAUUCCAGAGCGUCUCAGAAACCCCAGCCAAAC: 3.54 ratio
AAAGCCCAAGUAUUUUGAAAAAACUCGAACAGAUUUAACAAGGGUAGCCAGCUUGGAGUCUAGCAACUUUGCCAAUGGUUUACCAAUCUGGGGGCUUGUUUUUCUUUUCUUCUUUCAAAU: 0.242 ratio
UGACAAGGGCACUGCAGAGCCAUGCCUUUCCUUGACAUACAGAAAAAGCUGGGCAUCAGCCUGGACCGGCACUUUAUGUUCCUAAGCGGUGAACAGCCCUAUAAGAAGGCUGGUCGAUGC: 0.0907 ratio
AAUUUCCUGUCAUACUUUGUAGCAAGAGCCAUAGGUAUUACAGAGCACCUGGCCACAUUCUAGGUUUGUGUUAUUUCUCAGCUAUGGAUAUGAUCAAAUGAGAACACUGCUUAACUAAUG: 0.392 ratio
CCAAUUGUGGAGCAGUACUUGAAGACAAAAAAGAACUCUAAUAAUUUAAUCAUGAAAUACAUUAGCUGCCGCCUGCUGACACUCAUCAUUAUACUGUUAGCGUGUAUCUACCUGGGCUAU: 1.37 ratio
UAUCCAACUUUCUUGCCACAUUUUGAAUUCCAAGACAUUAUUCCUCCAGAUGACUUCCUAACGAGUGAUGAAGAGCAAGAUUUGGUUUUAUUUGGAACUAUGAGAGGUCAUGUGGUUGGA: 0.271 ratio
CGCCUGGAUGAGGCGGGUGUCACAGAUGAAGUGCUAGAUUCUGCCAUGCAAGCCUUCCUUCUGGAGGUCAUUGUUAAGCAUGGGGAGCCGGCACCUUAUUUAUGUAACAAAGAUCCGUUU: 0.0726 ratio
ACCAUUUUCGCGGUUCAGGCUUUGUGUGUAGUUCACUUACGGUAUUAAAUUAUUAUUGCCCUUAGUUUAUAAUAAGGAUAAUUGCAUUUAAAGAGGUUACUGAAUGUUACUCUGAAACUU: 0.749 ratio

Study 2 — technique: RNA Bind-n-Seq; form: RNA; matrix: in vitro; concentration: 200 nM; setting: whole 134-nt RNA, ends assumed; together with: 150 mM KCl; baseline: input library; direction: higher = stronger binding; quantity: log2 enrichment
Target: Ras GTPase-activating protein-binding protein 1, full length (G3BP1, Homo sapiens, UniProt Q13283)
Chain of UniProt Q13283 (whole entry, looked up): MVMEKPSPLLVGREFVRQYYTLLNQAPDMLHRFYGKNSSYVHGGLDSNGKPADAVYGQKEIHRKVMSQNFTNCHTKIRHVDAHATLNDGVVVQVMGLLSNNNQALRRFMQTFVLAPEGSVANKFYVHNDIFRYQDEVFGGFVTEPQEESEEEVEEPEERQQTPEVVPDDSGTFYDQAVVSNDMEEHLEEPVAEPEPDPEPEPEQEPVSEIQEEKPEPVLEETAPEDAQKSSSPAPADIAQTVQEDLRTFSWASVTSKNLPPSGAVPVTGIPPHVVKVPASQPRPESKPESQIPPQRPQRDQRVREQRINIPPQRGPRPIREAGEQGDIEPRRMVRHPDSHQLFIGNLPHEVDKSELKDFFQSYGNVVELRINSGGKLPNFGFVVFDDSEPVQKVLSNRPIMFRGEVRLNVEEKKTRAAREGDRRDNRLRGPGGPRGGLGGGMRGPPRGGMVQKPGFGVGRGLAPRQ
Shared flanks, not repeated: GGGAGUUCUACAGUCCGACGAUC … UGGAAUUCUCGGGUGUCAAGG
CCUGUGCUACACAUCGUAUGUACCGAAUCGGGCCCCCCCGGCCCCCCCGGCCCCCCCGGGAAAGUAUUAUGUUACGCCGUUCGGAUCUGC: 0.282
ACCAUGCAGGUGGGCAUCUUUGGGAAGUGGGGCAAGGGGGGGAUAGGGAGGGGGGUAACACUUUGGGAACUGGUGGUCCCAGGUCGUUUC: 1.01
CCUGUGCUACACAUCGUAUGUACCGAAUCGGGAAAAAAAGGGAAAAAAAGGGUUUUUGGGAAAGUAUUAUGUUACGCCGUUCGGAUCUGC: -0.818
GCAGGAAGUAAAAACAAAUGUAAAUGCUUCGGAUAGUGGCAGGGGUGGGGGUUGCUAAGGAAAGGGUGGGAUGGGAGUGGGUAAAGAGUU: 1.02
CAAGUCCUGUGCUACACAUCGUAUGUACCGAAUCGGAAAGGUUUUUUUGGUUUGGAAAGUAUUAUGUUACGCCGUUCGGAUCUGCACUUC: -1.27
GCAGGAAGUAAAAACAAAUAAAAAUGCUUCGGAUAGUGGCAGGGGUGGGGGUUGCUAAGGAAAGGGUGGGAUGGGAGUGGGUAAAGAGUU: 1.04
GGGACGUCAGCAUCGGCAUCAAGUGUGCCCCUGGAGUGGUAGGCCCCGCCGAAGCUGACAUCGACUUCGACAUCAUCCGCAAUGACAAUG: -2.03
AAGUCCUGUGCUACACAUCGUAUGUACCGAAUCGGGUGGGAAAAAAAGGGAAAGGGAAAGUAUUAUGUUACGCCGUUCGGAUCUGCACUU: 0.0115
GCAGGAAGUAAAAACAAAUGGAAAUGCUUCGGAUAGUGGCAGGGGUGGGGGUUGCUAAGGAAAGGGUGGGAUGAAAGUGGGUAAAGAGUU: 0.753
UCAGGAAGUAAAAACAAAUGGAAAUGCUUCGGAUAGUGGCAGGGGUGGGGGUUGCUAAGGAAAGGGUGGGAUGGGAGUGGGUAAAGAGUU: 0.805
CAAGUCCUGUGCUACACAUCGUAUGUACCGAAUCGGUUUUUGGUUUGGAAAAAGGAAAGUAUUAUGUUACGCCGUUCGGAUCUGCACUUC: -1.09
ACCAUGCAGGUGGGCAUCUUUGGGAAGUGGGGCAAGGGGGGGAUAGGGAGGGGAAAAACACUUUGGGAACAGGUGGUCCCAGGUCGUUUC: 1.17
UCCUGUGCUACACAUCGUAUGUACCGAAUCGGAAAAAAGGGGAAAAAAGGAAAAAAGGGAAAGUAUUAUGUUACGCCGUUCGGAUCUGCA: -0.785
AAGUCCUGUGCUACACAUCGUAUGUACCGAAUCGGCCCCGGGGCCCCGGGGCCCCGGAAAGUAUUAUGUUACGCCGUUCGGAUCUGCACU: 0.374

Study 3 — technique: aptamer microarray, sandwich; form: DNA with 2'F-ANA; matrix: in vitro; concentration: 200 nM; together with: Cy3 exosite-II aptamer, 400 nM; direction: higher = stronger binding; quantity: mean fluorescence intensity; strand: GGTTGGTGTGGTTGG
Target: Prothrombin, mature alpha-thrombin (F2, Homo sapiens, UniProt P00734)
Setting: whole 15-mer aptamer, many near background
2'F-ANA at 3 4 5 9 10 11 13: 52.5 a.u.
2'F-ANA at 2 3 4 7 11 13 14 15: 302 a.u.
2'F-ANA at 1 2 5 6 9 10 11 12 13 14: 45.5 a.u.
2'F-ANA at 1 2 3 4 6 11 14: 55.3 a.u.
2'F-ANA at 4 9 10 12 13 14: 59 a.u.
2'F-ANA at 3 4 5 6 11 12 13: 106 a.u.
2'F-ANA at 2 3 4 6 9 13: 310 a.u.
2'F-ANA at 8 9 11 13 14: 171 a.u.
2'F-ANA at 2 4 5 6 8 9 11 12 13: 155 a.u.
2'F-ANA at 2 3 4 7 8 9 12 13: 703 a.u.
2'F-ANA at 1 4 7 9 12 14 15: 64.1 a.u.
2'F-ANA at 2 3 4 5 13 14: 53.3 a.u.
2'F-ANA at 2 8 10 11 13: 107 a.u.
2'F-ANA at 2 5 7 8 11 12 13 14: 65.4 a.u.
2'F-ANA at 1 2 3 4 6 9 10: 153 a.u.
2'F-ANA at 2 3 4 6 8 11 14: 219 a.u.
2'F-ANA at 1 2 3 5 6 9 10 13 15: 48 a.u.
2'F-ANA at 1 3 4 5 7 10 12 13 15: 64.4 a.u.
2'F-ANA at 1 2 3 4 6 7 8 10 11 14 15: 51.8 a.u.
2'F-ANA at 1 2 3 6 7 10 11 12 14: 59.8 a.u.
2'F-ANA at 5 8 9 10 11 12 13 15: 57.3 a.u.
2'F-ANA at 1 2 4 5 6 11 13: 51.7 a.u.
2'F-ANA at 2 3 5 7 8 10 11 13 14: 52.1 a.u.
2'F-ANA at 1 3 4 7 8 11 12 13 15: 303 a.u.
2'F-ANA at 1 2 4 9 10 12 14 15: 46.8 a.u.

Study 4 — technique: RNA Bind-n-Seq; form: RNA; matrix: in vitro; concentration: 365 nM; baseline: no-protein control; direction: higher = stronger binding; quantity: RBNS enrichment (R)
Target: RNA binding protein fox-1 homolog 2, RRM domain, GST-SBP tag (RBFOX2, Homo sapiens, UniProt O43251-10, residues 100-194)
Setting: natural RNA segment, single round, ends assumed
Shared flanks, not repeated: GGGAGUUCUACAGUCCGACGAUC … UGGAAUUCUCGGGUGCCAA
Construct (chain): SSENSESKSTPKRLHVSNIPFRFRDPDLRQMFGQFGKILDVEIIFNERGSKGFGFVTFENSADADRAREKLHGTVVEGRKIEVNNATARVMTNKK
CUGCAUACCCACCGCCCAGCUUCUCCCUGAGGGCCCACCAGCCUGUGCUGUACACCCCGUUAGUCCCUGAUCCCAACCUUCUCCCUCCUGCCAGCACACCGAUGCACACA: 3.29
AUGCAGAAGGUCUGAUUCCAGAUCGUACCUAAGCAAGACAAUGCUCCAAGACUGUACCAAGCCAAGCUCUGAUAAGCUUCCAUCUUCCAUGGCUGGUAGACUGAACUGUC: 0.247
AUGGAAAGUGAAACCACAUGUGCCGUGACCUUUAGGUUUUAUGAGUAGACAGUGUUCAUUUGAUUUUCUACAGAAAUAAUAUAAAUUAUUCUUUAGGUUUAAAAAAGAGC: 0.459
UCAAAAGUGCAUAUGGGACUCAGUCCUUAGGUGUUCUUUUUCUUUUAAGAAAUAACCUCUUACAGUUGUAACCAUUGCGGCUCUGUCCACUUCUCGUUGCUGCUCUGUGG: 0.408
GGAACAGGUACCUUGAGAGUGAGAGCUACCCAUUGCCUGUGGCCUAAAUCUGCUGUGCAGGUUGGGCUGGUCAUACUGUCAUGAUUUCAUUAACAGCCUGGGUGAACAUG: 1.18
AAAAACCAGUUUCUCACGGAGGUUGAACCUAUCUGUGGCUGGACAGUCUUGGAUACUGUCAAGCAAACACCAGAGGCUUGGCCAAGUAUAGUUACAAUUACCUAGUUGGG: 0.363
AGGGGUACAGAAAUUAUCCCCCUACAACCCCAGCCUCCUGAGGGCUCCAUGCUGAAGGCUCCCAUUUUCAGUUCCCUCCUGCCCAGGACUGCAUUGUUUUCUAGCCCCGA: 0.613
GUAUUGUGCCUUGUGGUGAGAUAUAAAUUAUGGCCAUGGGAAACAUUGUAUAUUUAGUGUGUGUAUUUUGAUAAUGAUUGAUCUUAAAUCUGUAUACAGAAUAUCAUUGA: 1.14
GAAGCUUGGUGCAAGCUAAAAUUUUUAAAUGGUGUGGAAAUGCAAAUAAUACCAAGUAAAAUAAUACAGAUAUUAUUAAAGUUUCUGGUUUUGAGGUGUUGUAGAUAAAU: 1.36
UCCAGAGAGCAAAGCCCUGGGACUGGAUUUCCCUGUGCCUACUUCAUGAUCAUGAAUUCCAGUUAAUUUAUAAAGAGGCGAUUUUUGUGUGCCAUUCACACUGGUCUUUU: 0.622
ACAGUUGGUGUCUGGGAAGGUAUUGAACGCUCCUCACCCUGUGCCCGAAGAGACCCGGAACCAAGACCAUGGCAGGGCCUGCGUGGAAGCAGGUCCAGGCGUUUCUAGAA: 0.436
UUCAGAUGCCCAUCUUCUGCAGUUACCAAGGAAGAGAGAUUGUUCUGAAGUUACCCUCUGAAAAAUAUUUUGUCUCUCUGACUUGAUUUCUAUAAAUGCUUUUAAAAACA: 1.01

For quick reference, copied from above (study 3):
2'F-ANA at 2 4 5 6 8 9 11 12 13: 155 a.u.
2'F-ANA at 2 3 4 6 9 13: 310 a.u.
2'F-ANA at 8 9 11 13 14: 171 a.u.
2'F-ANA at 2 3 4 7 11 13 14 15: 302 a.u.
